Assay results gathered from unrelated publications.
Lines come from different studies, so protocols differ. Numbers after ± are the reported error.
Cell line: A549

Structure (SMILES) | observed | method | time | notes | with | IC50
Oc1ccccc1-c1nn(-c2ccccc2)[n+](-c2ccccc2)n1 | cell growth | resazurin |  |  |  | 180 ± 20 µM
CC(=O)O[C@@H]1CC[C@@]2(C)[C@@H](CC[C@]3(C)[C@@H]2C(=O)C=C2[C@@H]4[C@@H](C)[C@H](C)CC[C@]4(C)CC[C@]23C)[C@@]1(C)C(=O)NCCNC(=O)c1ccc(C)cc1 | cell growth or viability | MTT | 48 h |  |  | 16 µM
COc1c(OCc2ccccc2)cc2oc3cc(OCc4ccccc4)c(CC=C(C)C)c(O)c3c(=O)c2c1CC=C(C)C | cell growth or viability |  | 48 h |  |  | 10.3 µM
COc1ccc(C([O-])=CC(=O)c2ccc(C(C)(C)C)cc2)cc1.[Cl-].[Ru+2].c1ccc(-c2cccc(-c3ccccn3)n2)nc1 | cell growth or viability |  | 72 h | dark |  | 38.5 µM
CC(=O)O[C@H]1CC[C@]2(C)[C@H]3CC=C4[C@@H]5CC(C)(C)CC[C@]5(CO)CC[C@@]4(C)[C@]3(C)CC[C@H]2C1(C)C | cell growth or viability | SRB |  |  |  | > 100 µM
COc1ccc(-c2nnc(-c3ccccn3)[nH]2)cc1OC.COc1ccc(-c2nnc(-c3ccccn3)[nH]2)cc1OC.[Cu+2].[O-][Cl+3]([O-])([O-])[O-].[O-][Cl+3]([O-])([O-])[O-] | cell growth or viability | MTT | 24 h |  |  | 78.6 µM
Brc1ccc(Nc2nc(NN=Cc3c[nH]c4ccccc34)nc(-n3ccnc3)n2)cc1 | cell growth or viability | SRB | 5 days |  |  | 1.25 µM
Oc1ccc(C(=NNc2ccccc2)c2ccc(O)cc2)cc1 | cell growth or viability | ATP luminescence | 72 h |  |  | 34.4 µM
S=c1n(-c2ccccc2)c2c3ccccc3nc3[n+]2[n]1[Ir-3]12([S]3)([c]3cccc4ccc5ccc[n+]1c5c34)[c]1cccc3ccc4ccc[n+]2c4c13 | cell viability | MTT |  | dark |  | > 50 µM
CC(=O)O[C@@H]1CC[C@@]2(C)[C@@H](CC[C@]3(C)[C@@H]2C(=O)C=C2[C@@H]4[C@@H](C)[C@H](C)CC[C@]4(C)CC[C@]23C)[C@@]1(C)C(=O)O | cell growth or viability | MTT | 48 h |  |  | 27 µM
O=C(NCCc1ccccc1)c1ccccc1-n1c(=O)[nH]c2ccccc2c1=O | cell growth or viability | MTT | 24 h |  |  | 16.4 µM
COc1ccc(/C=C/C2=[N+]3C(=C(C=O)c4c(C)c(Br)c(/C=C/c5ccc(OC)cc5)n4[B-]3(F)F)C(C)=C2Br)cc1 | phototoxicity | resazurin |  |  | 645 nm light, 9.00 J/cm2 | 6.3 ± 2.7 µM
NC1CCCCC1N.O=C(CCCc1ccccc1)[O][Pt]1([O]C(=O)CCCc2ccccc2)[O]C(=O)C(=O)[O]1 | cell growth or viability |  |  |  |  | 19.6 µM
COc1cc(/C=C/C(=O)CC(C)=O)ccc1O | cell growth or viability | MTT | 48 h |  |  | 25 µM
C[O][Pt-2]1([Cl])([Cl])([O]C(=O)CCC(=O)OCCO)[NH2+]CC[N+]1(C)C | cell growth or viability | MTT | 96 h |  |  | 120 µM
COc1ccc2cc([C@H](C)C(=O)[O][Pt-2]34([O]C(=O)[C@@H](C)c5ccc6cc(OC)ccc6c5)([NH2+][C@@H]5CCCC[C@H]5[NH2+]3)[O]C(=O)C(=O)[O]4)ccc2c1 | cell growth | MTT | 48 h |  |  | 10.2 ± 1 µM
COc1ccc(S(=O)(=O)Nc2ccc(CCCC(=O)O[C@H]3c4cc5c(cc4[C@@H](c4cc(OC)c(OC)c(OC)c4)[C@H]4C(=O)OC[C@@H]43)OCO5)cc2)cc1 | cell growth or viability | CCK-8 | 24 h |  |  | 4.04 µM
C[OH+][Cu-2]12[O]C(c3cn(-c4ccccc4)nc3-c3ccc(Br)cc3)=N[N+]1=C(C)c1c(cc(C)oc1=O)[O]2 (stereo not drawn) | cell growth or viability | MTT | 48 h |  |  | 7.06 µM
O=C(c1ccc[nH]1)c1ccccc1O | cell growth or viability | resazurin | 24 h |  |  | > 64 µg/mL
O=C1N=C(N2N=C(c3cccs3)CC2c2ccc(F)cc2)S/C1=C\c1ccccc1 (stereo not drawn) | cell growth or viability | MTT |  |  |  | 37.5 µM
N#Cc1c(F)c(F)c2nc(SCc3ccc4ccccc4c3)nc(N)c2c1F | cell growth or viability | MTT | 96 h |  |  | 26.4 µM

Structure (SMILES) | observed | method | time | notes | with | IC50
N=C(N)Nc1nc2ccccc2s1 | cell growth or viability | MTT | 24 h |  |  | > 200 µM
CCOC12C(O)C(OC)C3(O)CC(C1C3OC(=O)c1ccccc1)C13C(OC)CC(O)C4(COC)CN(C)C1C2C(OC)C43 (stereo not drawn) | cell growth or viability | MTT |  |  |  | 17.6 µM
N#Cc1cccc(-c2ccc(=O)n(Cc3cccc(-c4ncc(OCC5CCN(CCCCCCCC(=O)Nc6cccc7c6C(=O)N(C6CCC(=O)NC6=O)C7=O)CC5)cn4)c3)n2)c1 (stereo not drawn) | cell growth or viability | CCK-8 | 72 h |  |  | 8.7 µM
CC(C)=CCC[C@@H](C)[C@H]1C[C@H](O)[C@@]2(C)C3=CC[C@H]4C(C)(C)[C@@H](O)CC[C@]4(C)C3=CC[C@]12C | cell growth or viability | MTT | 72 h |  |  | 6.1 µM
COCCOc1cc2ncnc(Nc3cccc(-c4cn(-c5ccccc5S(N)(=O)=O)nn4)c3)c2cc1OCCOC | cell proliferation | CCK-8 | 72 h | hypoxia |  | 16.3 µM
COc1c(C)c(OS(=O)(=O)c2ccccc2)c(C)c2c1C(=O)CC(c1ccccc1)O2 (stereo not drawn) | cell growth or viability | SRB | 72 h |  |  | 37.9 µM
CC1=CC(C)=[N+]2C1=C(CO)c1c(C)cc(C)n1[B-]2(F)F | cell viability | resazurin | 48 h | 510 nm irradiation 2.44 J/cm2 |  | 11 ± 3 µM
O=C1c2cccc3cccc(c23)C12NC(Cc1ccc(O)cc1)C([N+](=O)[O-])C2c1cccc([N+](=O)[O-])c1 (stereo not drawn) | cell growth or viability | MTT | 24 h |  |  | 81.2 µM
CC(=O)[C@@H]1CCCN1C(=O)[C@@H]1CCCN1C(=O)[C@H](Cc1ccccc1)N(C)C(=O)OC(C)(C)C | cell growth or viability | SRB |  |  |  | 2 µM
COc1c(O)cc2oc3c(Br)c(O)c(CC=C(C)C)c(O)c3c(=O)c2c1CC=C(C)C | cell growth or viability |  | 48 h |  |  | > 40 µM
CCn1cc[n+](CC)[c]1[Au-]([Cl])([Cl])[Cl] | cell growth or viability | crystal violet | 72 h |  |  | 23.6 µM
Cc1cc(C)c(N[C](NCc2cccc(N[C](Nc3c(C(C)C)cccc3C(C)C)=[Pt-]([Cl])([Cl])[C]#[N+]c3c(C(C)C)cccc3C(C)C)c2)=[Au][Cl])c(C)c1 | cell growth or viability |  |  |  |  | > 100 µM
COc1cc(N(C)CCN(C)C)c(NC(=O)/C=C/c2ccc3c(c2)OCCO3)cc1Nc1nccc(-c2cn(C)c3ccccc23)n1 | cell growth or viability | MTT | 72 h |  |  | 0.207 µM
CC(=O)OC[C@]1(C)CCC[C@]2(COC(C)=O)[C@@H]1CC[C@@]13C[C@@H](C[C@H](O)[C@H]12)[C@@H](C)C3=O | cell growth or viability | MTT |  |  |  | > 20 µM
[Cl-].[Cl-].[Ru+2].c1ccc(-c2ccccn2)nc1.c1ccc(-c2ccccn2)nc1.c1ccc(-c2ccccn2)nc1 |  | resazurin | 72 h |  | indigo light 450 nm, 29.1 J/cm2 | 8.6 µM
N#Cc1c(F)c(F)c2nc(SCC3CCCO3)nc(N)c2c1F (stereo not drawn) | cell growth or viability | MTT | 96 h |  |  | 26.4 µM
CC(=O)N[C@H]1C(n2cc([C@@](C)(O)c3cccc(F)c3)nn2)O[C@H](COCc2ccccc2)[C@H](OCc2ccccc2)[C@@H]1OCc1ccccc1 (stereo partly drawn) | cell growth or viability | MTS | 72 h |  |  | 65.7 µM
C[C@]12CC/C(=N/O)C=C1CCC1C2CC[C@]2(C)/C(=C/c3ccccn3)CCC12 (stereo partly drawn) | cell growth or viability | MTT | 72 h |  |  | 1.8 µM
CC(C)c1cccc(C(C)C)c1[N+]#[C][Pt-2]([Cl])([Cl])[C]#[N+]c1c(C(C)C)cccc1C(C)C | cell growth or viability |  |  |  |  | > 100 µM
OC[C@H]1[C@@H](O)[C@@H](O)CN1Cc1ccc(Br)cc1 | cell growth or viability | MTS | 72 h |  |  | > 200 µM
Cc1ccc(NC(=O)N/N=C2\CC3(CCN(C)CC3)Oc3ccccc32)cc1 | cell growth or viability | MTT | 48 h |  |  | 5.12 µM

A few entries again:
Structure (SMILES) | observed | method | time | notes | with | IC50
COc1ccc(S(=O)(=O)Nc2ccc(CCCC(=O)O[C@H]3c4cc5c(cc4[C@@H](c4cc(OC)c(OC)c(OC)c4)[C@H]4C(=O)OC[C@@H]43)OCO5)cc2)cc1 | cell growth or viability | CCK-8 | 24 h |  |  | 4.04 µM
COc1ccc(C([O-])=CC(=O)c2ccc(C(C)(C)C)cc2)cc1.[Cl-].[Ru+2].c1ccc(-c2cccc(-c3ccccn3)n2)nc1 | cell growth or viability |  | 72 h | dark |  | 38.5 µM
C[OH+][Cu-2]12[O]C(c3cn(-c4ccccc4)nc3-c3ccc(Br)cc3)=N[N+]1=C(C)c1c(cc(C)oc1=O)[O]2 (stereo not drawn) | cell growth or viability | MTT | 48 h |  |  | 7.06 µM
N#Cc1cccc(-c2ccc(=O)n(Cc3cccc(-c4ncc(OCC5CCN(CCCCCCCC(=O)Nc6cccc7c6C(=O)N(C6CCC(=O)NC6=O)C7=O)CC5)cn4)c3)n2)c1 (stereo not drawn) | cell growth or viability | CCK-8 | 72 h |  |  | 8.7 µM
C[C@]12CC/C(=N/O)C=C1CCC1C2CC[C@]2(C)/C(=C/c3ccccn3)CCC12 (stereo partly drawn) | cell growth or viability | MTT | 72 h |  |  | 1.8 µM
N#Cc1c(F)c(F)c2nc(SCc3ccc4ccccc4c3)nc(N)c2c1F | cell growth or viability | MTT | 96 h |  |  | 26.4 µM
